Experimental data pooled from the literature.
Compare with care: the assays were run in different laboratories. Numbers after ± are the reported error.
EGFR: Epidermal growth factor receptor (EGFR, Homo sapiens, UniProt P00533)
EGFR L858R/T790M: Epidermal growth factor receptor (EGFR, Homo sapiens, UniProt P00533, L858R/T790M)

| Compound | target | assay | conditions | how to read | remaining activity [%] |
| --- | --- | --- | --- | --- | --- |
| COc1cc(N2CCN(C)CC2)ccc1Nc1nc(N)n(C(=O)NCc2c(Cl)cccc2Cl)n1 | EGFR (Homo sapiens, UniProt P00533, G719C) | enzyme activity | 10 µM | baseline: control | 13 |
| COc1cc(F)ccc1-c1ncnc(Nc2cccc(C[S@](C)(=N)=O)c2)n1 | EGFR | kinase activity | 10 µM, with: 10 µM ATP |  | 96 |
| CCN(CC)c1ccc(C2=NNC(=O)CC2C)cc1[N+](=O)[O-] (stereo not shown) | EGFR | enzyme activity, inhibitor | 10 µM | baseline: vehicle | 102 |
| CCOc1cc(N2CCN(C)CC2)ccc1Nc1nc(N)n(C(=O)NCc2ccccc2S(=O)(=O)C(C)C)n1 | EGFR (Homo sapiens, UniProt P00533, del747-752/P753S) | enzyme activity | 10 µM | baseline: control | 6.3 |
| COc1ccc(F)cc1C(=O)NCc1ccc(-c2nn([C@@H](C)C(F)(F)F)c(N)c2C(N)=O)cc1 | EGFR | kinase activity, inhibitor, HotSpot radiometric | 100 nM, with: ATP 10 µM |  | 106 ± 1.6 |
| COc1cc(N2CCN(C)CC2)ccc1Nc1nc(N)n(C(=O)NCc2ccccc2S(=O)(=O)C(C)C)n1 | EGFR (Homo sapiens, UniProt P00533, del752-759) | enzyme activity | 10 µM | baseline: control | 9.4 |
| Cc1cc(Nc2cc(N3CCN(C)CC3)nc(Sc3ccc(NC(=O)C4CC4)cc3)n2)[nH]n1 | EGFR | kinase activity, KinaseProfiler | 0.03 µM, species human | baseline: control | 109 |
| CCCOc1ccc(OC)c(F)c1C(=O)c1ccc(C(=O)N[C@@H]2CNC[C@H]2NC(=O)c2ccc3[nH]ncc3c2)cc1 | EGFR L858R/T790M | enzyme activity | 10 µM |  | 67 |
| O=C(NC1CCC1)c1ccc2nc(-c3cccc(NS(=O)(=O)NCCN4CCCCC4)c3)cn2c1 | EGFR L858R/T790M | enzyme activity | 10 µM |  | 92 |
| Cc1[nH]c(/C=C2\C(=O)Nc3ccc(F)cc32)c(C)c1C(=O)N[C@H]1CCN(C(=O)N(C)C)C1 | EGFR | kinase activity | 0.1 µM | baseline: control | 114 |
| COc1cc(N2CCN(C)CC2)ccc1Nc1nc(N)n(C(=S)NCc2c(Cl)cccc2Cl)n1 | EGFR (Homo sapiens, UniProt P00533, L861Q) | enzyme activity | 10 µM | baseline: control | 0.4 |
| COc1cc(-c2cncc3c2CN(C)Cc2cc(N4CCNCC4)ccc2-3)cc(OC)c1OC | EGFR (Homo sapiens, UniProt P00533, T790M) | kinase activity | 1 µM, with: ATP 10 µM | baseline: DMSO control | 103 |
| CC#CC(=O)N1CCC[C@H]1c1nc(-c2ccc(C(=O)Nc3ccccn3)cc2)c2c(N)nccn12 | EGFR | kinase activity, inhibitor, HotSpot radiometric | 100 nM, with: ATP 10 µM |  | 95.9 ± 1.2 |
